Measured values collected from several papers.
Several values in a cell are separate wells, animals, samples, runs or records. ± gives the spread as reported.
T1: RAMP2/CALCR extracellular domain fusion 43-143 (Homo sapiens); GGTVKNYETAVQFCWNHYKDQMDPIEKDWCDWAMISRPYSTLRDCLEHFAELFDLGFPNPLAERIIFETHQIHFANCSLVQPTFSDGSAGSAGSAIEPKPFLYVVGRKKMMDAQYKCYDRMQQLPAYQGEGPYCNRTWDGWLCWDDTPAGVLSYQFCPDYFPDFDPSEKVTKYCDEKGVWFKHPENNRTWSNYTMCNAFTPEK
B1: NRP1 (Arabidopsis thaliana); chain MVADKSKKSKIEEKGEEENLEQIDAELVLSIEKLQEIQDDLEKINEKASDEVLEVEQKYNVIRKPVYDKRNEVIQSIPGFWMTAFLSHPALGDLLTEEDQKIFKYLNSLEVEDAKDVKSGYSITFHFTSNPFFEDAKLTKTFTFLEEGTTKITATPIKWKEGKGLPNGVNHDDKKGNKRALPEESFFTWFTDAQHKEDAGDEIHDEVADIIKEDLWSNPLTYFNNDADEEDFDGDDDGDEEGEEDDDDEEEEDGEE
B2: Mena EVH1 1-113 (Homo sapiens, UniProt Q8N8S7); chain MSEQSICQARAAVMVYDDANKKWVPAGGSTGFSRVHIYHHTGNNTFRVVGRKIQDHQVVINCAIPKGLKYNQATQTFHQWRDARQVYGLNFGSKEDANVFASAMMHALEVLNS
B3: RPRD1A 2-137 (Homo sapiens, UniProt Q96P16); chain SAFSEAALEKKLSELSNSQQSVQTLSLWLIHHRKHSRPIVTVWERELRKAKPNRKLTFLYLANDVIQNSKRKGPEFTKDFAPVIVEAFKHVSSETDESCKKHLGRVLSIWEERSVYENDVLEQLKQALYGDKKPRK
B4: EFR3A 721-791 (Homo sapiens, UniProt Q14156); chain SNTEEITFEALKKAIDTSGMEEQEKEKRRLVIEKFQKAPFEEIAAQCESKANLLHDRLAQILELTIRPPPS
B5: designed binder (Homo sapiens); chain MASAARLTMMWEEVTCPICLDPFVEPVSIECGHSFCQECISQVGKGGGSVCPVCRQRFLLKNLRPNRQLANMVNNLKEISQEAREGTQGERCAVHGERLHLFCEKDGKALCWVCAQSRKHRDHAMVPLEEAAQEYQEKLQVALGELRRKQELAEKLEVEIAIKRADWKKTVETQKSRIHAEFVQQKNFLVEEEQRQLQELEKDEREQLRILGEKEAKLAQQSQALQELISELDRRCHSSALELLQEVIIVLERSESWNLKDLDITSPELRSVCHVPGLKKMLRTCAGGGGSGGGGSGGGGSRLDAPSQIEVKDVTDTTALITWDGPYTYIYSFELTYGIKDVPGDRTTIYLRYYNYYYSIGNLKPDTEYEVSLISSRSVRGSRRSSNPAKITFKTGL
B6: dnaN R103C/I305C/C260S/C333S (Escherichia coli, UniProt P0A988); Alexa Fluor 488 label; sequence looked up; chain MKFTVEREHLLKPLQQVSGPLGGRPTLPILGNLLLQVADGTLSLTGTDLEMEMVARVALVQPHEPGATTVPARKFFDICRGLPEGAEIAVQLEGERMLVRSGCSRFSLSTLPAADFPNLDDWQSEVEFTLPQATMKRLIEATQFSMAHQDVRYYLNGMLFETEGEELRTVATDGHRLAVCSMPIGQSLPSHSVIVPRKGVIELMRMLDGGDNPLRVQIGSNNIRAHVGDFIFTSKLVDGRFPDYRRVLPKNPDKHLEAGSDLLKQAFARAAILSNEKFRGVRLYVSENQLKITANNPEQEEAEECLDVTYSGAEMEIGFNVSYVLDVLNALKSENVRMMLTDSVSSVQIEDAASQSAAYVVMPMRL
B7: Flrt2 35-362 (Mus musculus, UniProt Q8BLU0); chain ACPSVCRCDRNFVYCNERSLTSVPLGIPEGVTVLYLHNNQINNAGFPAELHNVQSVHTVYLYGNQLDEFPMNLPKNVRVLHLQENNIQTISRAALAQLLKLEELHLDDNSISTVGVEDGAFREAISLKLLFLSKNHLSSVPVGLPVDLQELRVDENRIAVISDMAFQNLTSLERLIVDGNLLTNKGIAEGTFSHLTKLKEFSIVRNSLSHPPPDLPGTHLIRLYLQDNQINHIPLTAFANLRKLERLDISNNQLRMLTQGVFDHLSNLKQLTARNNPWFCDCSIKWVTEWLKYIPSSLNVRGFMCQGPEQVRGMAVRELNMNLLSCPT
B8: FIBH residues 1662-1810 (Bombyx mori); N-terminal Alexa Fluor 488; chain GAGAGSGAGAGSGAGAGSGAGAGSGAGAGYGAGYGAGAGAGYGAGAGSGAGSGAGAGSGAGAGSGAGAGSGAGAGSGAGAGSGAGAGSGAGAGSGAGSGSGAGAGSGAGAGSGAGAGYGAGVGAGYGVGYGAGAGAGYGAGAGSGAAS
B9: F10 factor Xa (Homo sapiens, UniProt P00742); light ANSFLEEMKKGHLERECMEETCSYEEAREVFEDSDKTNEFWNKYKDGDQCETSPCQNQGKCKDGLGEYTCTCLEGFEGKNCELFTRKLCSLDNGDCDQFCHEEQNSVVCSCARGYTLADNGKACIPTGPYPCGKQTLER; heavy IVGGQECKDGECPWQALLINEENEGFCGGTILSEFYILTAAHCLYQAKRFKVRVGDRNTEQEEGGEAVHEVEVVIKHNRFTKETYDFDIAVLRLKTPITFRMNVAPACLPERDWAESTLMTQKTGIVSGFGRTHEKGRQSTRLKMLEVPYVDRNSCKLSSSFIITQNMFCAGYDTKQEDACQGDSGGPHVTRFKDTYFVTGIVSWGEGCARKGKYGIYTKVTAFLKWIDRSMKTRGLPKAKSHAPEVITSSPLK
B10: GP1BA ligand-binding domain 17-306 (Homo sapiens, UniProt P07359); RED-NHS dye label; sequence looked up; chain HPICEVSKVASHLEVNCDKRNLTALPPDLPKDTTILHLSENLLYTFSLATLMPYTRLTQLNLDRCELTKLQVDGTLPVLGTLDLSHNQLQSLPLLGQTLPALTVLDVSFNRLTSLPLGALRGLGELQELYLKGNELKTLPPGLLTPTPKLEKLSLANNNLTELPAGLLNGLENLDTLLLQENSLYTIPKGFFGSHLLPFAFLHGNPWLCNCEILYFRRWLQDNAENVYVWKQGVDVKAMTSNVASVQCDNSDKFPVYKYPGKGCPTLGDEGDTDLYDYYPEEDTEGDKVR
B11: PXN 541-605 (Homo sapiens, UniProt P49023-3); sequence looked up; chain YHERRGSLCSGCQKPITGRCITAMAKKFHPEHFVCAFCLKQLNKGTFKEQNDKPYCQNCFLKLFC
Sequence of UniProt Q9WV60 (whole entry, looked up): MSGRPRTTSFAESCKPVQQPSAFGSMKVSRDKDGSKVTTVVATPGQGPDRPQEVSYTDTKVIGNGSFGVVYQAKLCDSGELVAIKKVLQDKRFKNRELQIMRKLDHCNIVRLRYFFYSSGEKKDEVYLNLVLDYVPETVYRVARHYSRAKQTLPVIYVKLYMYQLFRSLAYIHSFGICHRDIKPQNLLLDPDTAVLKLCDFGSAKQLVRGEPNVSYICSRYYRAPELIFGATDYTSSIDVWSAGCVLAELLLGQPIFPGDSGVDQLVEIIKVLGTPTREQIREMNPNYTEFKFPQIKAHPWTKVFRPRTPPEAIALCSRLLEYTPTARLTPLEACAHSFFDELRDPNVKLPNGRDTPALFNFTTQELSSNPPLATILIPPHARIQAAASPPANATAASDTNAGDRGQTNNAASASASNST
Sequence of UniProt Q8NEM0 (whole entry, looked up): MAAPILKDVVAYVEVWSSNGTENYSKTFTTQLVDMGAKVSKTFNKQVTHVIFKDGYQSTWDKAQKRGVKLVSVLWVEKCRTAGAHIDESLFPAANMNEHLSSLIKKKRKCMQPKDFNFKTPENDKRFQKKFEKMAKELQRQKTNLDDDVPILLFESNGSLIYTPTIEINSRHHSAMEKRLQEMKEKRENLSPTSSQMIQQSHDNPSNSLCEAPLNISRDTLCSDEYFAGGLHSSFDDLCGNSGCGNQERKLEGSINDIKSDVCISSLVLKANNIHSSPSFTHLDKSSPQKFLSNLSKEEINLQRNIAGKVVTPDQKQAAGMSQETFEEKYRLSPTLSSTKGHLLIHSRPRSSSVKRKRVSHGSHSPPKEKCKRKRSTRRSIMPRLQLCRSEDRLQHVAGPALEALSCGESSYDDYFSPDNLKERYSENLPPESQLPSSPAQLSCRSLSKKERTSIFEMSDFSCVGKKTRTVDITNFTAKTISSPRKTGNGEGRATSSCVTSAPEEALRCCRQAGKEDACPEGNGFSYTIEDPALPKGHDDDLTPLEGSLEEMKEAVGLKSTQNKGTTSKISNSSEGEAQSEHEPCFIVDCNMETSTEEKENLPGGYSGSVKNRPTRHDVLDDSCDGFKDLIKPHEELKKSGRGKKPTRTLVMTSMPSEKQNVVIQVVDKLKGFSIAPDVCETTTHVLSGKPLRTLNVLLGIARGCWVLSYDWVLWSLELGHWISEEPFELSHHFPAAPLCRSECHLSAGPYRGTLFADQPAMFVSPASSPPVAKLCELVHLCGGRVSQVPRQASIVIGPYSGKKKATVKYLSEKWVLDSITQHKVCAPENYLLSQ
Sequence of UniProt Q5BJF2 (whole entry, looked up): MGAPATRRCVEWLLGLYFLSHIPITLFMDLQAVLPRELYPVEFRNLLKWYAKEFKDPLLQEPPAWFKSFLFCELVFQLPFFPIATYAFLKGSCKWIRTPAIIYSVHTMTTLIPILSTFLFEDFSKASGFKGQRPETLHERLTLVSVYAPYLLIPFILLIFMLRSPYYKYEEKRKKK
Sequence of UniProt P84090 (whole entry, unmodified, looked up): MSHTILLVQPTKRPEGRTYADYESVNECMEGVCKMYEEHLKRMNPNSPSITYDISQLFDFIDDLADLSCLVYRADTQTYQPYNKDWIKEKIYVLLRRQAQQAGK
Sequence of UniProt Q71LX4 (whole entry, looked up): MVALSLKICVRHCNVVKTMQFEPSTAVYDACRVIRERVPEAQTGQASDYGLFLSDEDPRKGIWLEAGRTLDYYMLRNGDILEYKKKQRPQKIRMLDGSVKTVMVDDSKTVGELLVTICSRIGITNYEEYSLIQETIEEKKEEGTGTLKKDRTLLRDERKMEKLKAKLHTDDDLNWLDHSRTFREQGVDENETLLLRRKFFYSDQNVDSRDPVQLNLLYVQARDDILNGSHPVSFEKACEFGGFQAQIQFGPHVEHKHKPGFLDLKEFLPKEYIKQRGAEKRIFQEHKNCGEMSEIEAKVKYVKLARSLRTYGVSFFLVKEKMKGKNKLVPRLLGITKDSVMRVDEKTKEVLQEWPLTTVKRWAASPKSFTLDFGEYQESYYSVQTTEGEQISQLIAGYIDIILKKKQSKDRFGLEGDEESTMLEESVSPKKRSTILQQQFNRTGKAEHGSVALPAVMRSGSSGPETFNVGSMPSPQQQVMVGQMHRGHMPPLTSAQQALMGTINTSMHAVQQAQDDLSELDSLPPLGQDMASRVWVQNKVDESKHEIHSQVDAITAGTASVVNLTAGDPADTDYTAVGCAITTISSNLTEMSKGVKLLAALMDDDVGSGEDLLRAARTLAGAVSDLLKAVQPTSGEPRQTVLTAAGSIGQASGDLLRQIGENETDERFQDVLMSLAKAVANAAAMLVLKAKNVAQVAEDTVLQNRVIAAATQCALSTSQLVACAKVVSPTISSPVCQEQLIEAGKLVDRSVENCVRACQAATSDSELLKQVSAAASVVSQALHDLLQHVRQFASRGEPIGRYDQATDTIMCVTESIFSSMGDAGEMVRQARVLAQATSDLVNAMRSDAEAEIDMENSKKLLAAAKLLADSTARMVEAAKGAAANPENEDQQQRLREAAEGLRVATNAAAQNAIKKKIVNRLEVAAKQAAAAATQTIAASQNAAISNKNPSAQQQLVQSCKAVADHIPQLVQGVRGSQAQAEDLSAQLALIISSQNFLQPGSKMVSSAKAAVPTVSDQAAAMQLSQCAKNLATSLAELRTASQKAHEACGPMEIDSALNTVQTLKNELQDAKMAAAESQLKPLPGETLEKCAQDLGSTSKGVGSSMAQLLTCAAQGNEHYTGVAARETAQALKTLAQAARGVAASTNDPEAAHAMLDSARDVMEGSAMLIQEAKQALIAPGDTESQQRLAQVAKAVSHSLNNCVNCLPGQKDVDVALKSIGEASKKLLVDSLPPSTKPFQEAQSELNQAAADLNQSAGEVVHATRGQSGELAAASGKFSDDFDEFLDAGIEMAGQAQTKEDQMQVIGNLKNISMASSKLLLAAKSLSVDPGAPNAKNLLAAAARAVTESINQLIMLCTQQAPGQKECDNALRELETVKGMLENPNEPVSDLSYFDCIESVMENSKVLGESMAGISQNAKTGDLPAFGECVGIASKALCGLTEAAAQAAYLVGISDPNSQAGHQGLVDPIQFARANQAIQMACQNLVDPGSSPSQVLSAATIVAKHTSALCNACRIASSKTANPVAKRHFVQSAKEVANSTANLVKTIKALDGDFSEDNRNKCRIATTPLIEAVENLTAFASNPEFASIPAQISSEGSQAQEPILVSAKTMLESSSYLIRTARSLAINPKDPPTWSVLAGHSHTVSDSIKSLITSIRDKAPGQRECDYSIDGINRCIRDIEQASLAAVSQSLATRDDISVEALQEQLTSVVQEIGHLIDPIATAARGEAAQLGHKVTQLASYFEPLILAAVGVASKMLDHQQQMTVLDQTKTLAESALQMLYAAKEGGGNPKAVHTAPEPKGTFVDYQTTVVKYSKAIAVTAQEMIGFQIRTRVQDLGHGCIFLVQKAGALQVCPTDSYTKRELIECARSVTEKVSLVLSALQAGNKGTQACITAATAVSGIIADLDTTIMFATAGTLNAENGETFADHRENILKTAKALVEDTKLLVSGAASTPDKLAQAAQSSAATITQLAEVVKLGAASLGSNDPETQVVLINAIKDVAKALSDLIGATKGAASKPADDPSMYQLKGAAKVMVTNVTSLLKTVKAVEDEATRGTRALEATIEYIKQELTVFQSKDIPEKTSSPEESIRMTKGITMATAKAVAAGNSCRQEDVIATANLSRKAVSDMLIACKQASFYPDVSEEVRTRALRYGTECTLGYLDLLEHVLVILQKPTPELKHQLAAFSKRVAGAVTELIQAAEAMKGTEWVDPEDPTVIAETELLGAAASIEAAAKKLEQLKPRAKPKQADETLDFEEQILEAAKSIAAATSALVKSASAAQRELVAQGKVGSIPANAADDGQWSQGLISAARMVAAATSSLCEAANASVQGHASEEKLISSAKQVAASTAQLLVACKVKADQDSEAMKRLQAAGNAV
Sequence of UniProt Q8IXW5 (whole entry, looked up): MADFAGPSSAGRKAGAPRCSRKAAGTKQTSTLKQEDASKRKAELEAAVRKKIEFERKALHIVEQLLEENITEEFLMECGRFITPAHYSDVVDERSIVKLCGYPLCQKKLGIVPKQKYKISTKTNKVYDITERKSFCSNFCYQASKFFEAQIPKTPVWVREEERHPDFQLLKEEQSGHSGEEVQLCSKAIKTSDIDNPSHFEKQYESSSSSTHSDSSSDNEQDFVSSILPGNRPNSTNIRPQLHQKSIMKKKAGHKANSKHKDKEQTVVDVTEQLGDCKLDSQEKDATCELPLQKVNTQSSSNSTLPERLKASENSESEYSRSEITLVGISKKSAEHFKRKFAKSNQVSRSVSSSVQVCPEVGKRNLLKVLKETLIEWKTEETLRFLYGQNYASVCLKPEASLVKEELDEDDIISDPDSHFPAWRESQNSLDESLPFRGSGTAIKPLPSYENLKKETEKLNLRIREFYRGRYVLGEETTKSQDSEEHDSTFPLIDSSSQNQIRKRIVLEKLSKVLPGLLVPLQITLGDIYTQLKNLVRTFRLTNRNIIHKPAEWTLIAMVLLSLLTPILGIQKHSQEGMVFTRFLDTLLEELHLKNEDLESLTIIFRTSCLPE
Sequence of UniProt P15873 (whole entry, looked up): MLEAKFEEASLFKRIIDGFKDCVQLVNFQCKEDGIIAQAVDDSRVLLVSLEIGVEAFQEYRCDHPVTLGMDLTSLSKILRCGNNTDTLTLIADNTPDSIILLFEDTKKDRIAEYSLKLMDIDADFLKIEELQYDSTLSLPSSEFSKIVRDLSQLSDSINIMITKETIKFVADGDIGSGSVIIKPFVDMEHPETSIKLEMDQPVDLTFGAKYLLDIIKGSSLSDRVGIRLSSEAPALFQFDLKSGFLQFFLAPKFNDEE

With `HEKHHSHREFPFYGDYGSNYLYDN (HTN1 34-57 (Homo sapiens, UniProt P15515); sequence looked up)` the Kd was > 50 µM (TMEM97 (Homo sapiens, UniProt Q5BJF2); SPR; peptide).
With `SDLACRLLGQSMDESGLPQLTSYDCEVNAPIQGSGSGSRNLLQGEELLRALDQVN (HIF-1α CTAD 776-826 (GS)2 insertion (Homo sapiens, UniProt Q16665); sequence looked up)` the Kd was 0.12 µM (Crebbp 340-439 (Mus musculus, UniProt P45481); fluorescence polarisation).
`B1 (NRP1)` has a Kd of 57.9 µM (H3 fragment (Xenopus laevis); SPR).
The Kd of `NGIAAMLQRHSRKRFQL (PIF1 815-831 (Saccharomyces cerevisiae, UniProt P07271); sequence looked up)` is reported as 19 µM (POL30 1-258 (Saccharomyces cerevisiae, UniProt P15873); ITC; peptide).
For `caspofungin`, the alkaline phosphatase was 166 U/L (adult ICU patients, mITT, serum; dose not given, Follow-up).
`B2 (Mena EVH1 1-113)` gave a Kd of 13.8 µM and 8.4 µM (PTP1B (Homo sapiens); intrinsic tryptophan fluorescence).
The Kd of `B3 (RPRD1A 2-137)` is reported as > 1000 µM (RPAP2 (Homo sapiens, UniProt Q8IXW5); ITC; 25 °C).
`SQELHKLQTYPRTNTGSGTP (salmon calcitonin 13-32 (Salmo salar); N-terminal FITC-Ahx/C-terminal amide)` has a Kd of 4.4 µM (T1, RAMP2/CALCR extracellular domain fusion 43-143 (Homo sapiens); fluorescence polarization; peptide).
The Kd of `B4 (EFR3A 721-791)` is reported as 0.000298 µM (TTC7B/FAM126B FAM126B 1-308; BLI).
The Kd of `B5 (designed binder)` is reported as > 3.8 µM (EED (Homo sapiens, UniProt O75530); BLI; designed binder).
`B6 (dnaN R103C/I305C/C260S/C333S)` gave a Kd of 0.002 µM (clamp loader (Escherichia coli, UniProt P06710-2); fluorescence titration).
`UBE2D2 (Homo sapiens, UniProt P62837)` has a Kd of 266 ± 118 µM (NEDD4 HECT domain, Cy5 N-terminus (Homo sapiens); MST; added: Ub 100 µM).
The Kd of `PRTARHAPAVRKFSPDLKLLKDVKISVSFTE (DGCR8(96-126), SUMO-tagged)` is reported as > 100 µM (Enhancer of rudimentary homolog (Homo sapiens, UniProt P84090, F60A/L64A); ITC; peptide; 293 K, ERH F60A/L64A mutant, added: DGCR8 peptide).
With `Cacng2 fragment (Mus musculus) (sequence not shown)` the Kd was 35 µM (DLG4 PDZ1, pS142 (Homo sapiens); ITC).
`B7 (Flrt2 35-362)` has a Kd of 21 µM (UNC5B 27-375 (Homo sapiens, UniProt Q8IZJ1); SPR).
`DHEYVLTESFLDSGAFPNHDVIDHNKMLNSNYNGNGILNKGGVLGLVKEYYKKSDVGR (ATG9 940-997 (Saccharomyces cerevisiae, UniProt Q12142); sequence looked up)` has a Kd of 0.57 µM (ATG23 A34E (Saccharomyces cerevisiae, UniProt Q06671); BLI).
`WGSGGVEPQKFAEELIHRLEAVQRTREAEEKLEERLKRVRMEEEGEDGDPSSGPPGPC (AXIN1 383-435 (Homo sapiens); HiLyte488 label)` gave a Kd of 0.00074 µM (Gsk3b 26-383 (Mus musculus, UniProt Q9WV60); fluorescence polarisation).
`Peginesatide` has a mRNA level of 5.9 fold (UT7/EPO; RT-qPCR, measured: FOS; concentration not given, 90 min, normalized to HPRT1; baseline: vehicle).
For `FGA (Homo sapiens, UniProt P02671)`, cross-linked residues read “K432 to K272” (POPDC1 (Homo sapiens, UniProt Q8NE79); cross-linking MS; added: DSSO).
`colistin` gave an MIC of 1 µg/mL (Pseudomonas aeruginosa; broth microdilution; clinical isolate RKI-No_480/15).
The Kd of `H2AX/H2B/H3/H4 nucleosome core particle, pS139 (Homo sapiens)` is reported as 0.03 ± 0.0067 µM (MCPH1 BRCT 639-835 (Homo sapiens, UniProt Q8NEM0); MST).
`B8 (FIBH residues 1662-1810)` gave a Kd of 0.0272 ± 0.00063 µM (collagen I (Homo sapiens, UniProt P02452); FCS).
For `B9 (F10 factor Xa)`, the Kd was 0.0002 ± 1e-05 µM (factor Va R506Q (Homo sapiens, UniProt P12259); thrombin generation, prothrombinase activity titration).
`B10` has a Kd of 0.122 µM (VWF fragment C1669A/C1670A (Homo sapiens); MST).
Under “rate constant k-1”, `11-deoxycorticosterone` is recorded as 66.2 ± 2.24 s⁻¹ (CYP11B2 (human); substrate binding, stopped-flow global kinetic fitting; purified enzyme; 3-state induced fit model, added: no adrenodoxin).
For `KGTILKASVDYIRRM (TFEB residues 274-288)`, the Kd was 0.0383 µM (TRIP12 (Homo sapiens, UniProt Q14669); MST; peptide, 293T, lysate; GFP-tagged).
`KLLITIHDRKEFAKFEEERARAKWDTANNPLYKEATSTFTNITYRGT (ITGB3 742-788 (Homo sapiens, UniProt P05106); sequence looked up)` has a Kd of 438 µM (Tln2 312-408 (Mus musculus, UniProt Q71LX4); NMR titration).
Under cross-linked residues, `ALB (Homo sapiens, UniProt P02768)` is recorded as “K236 to K314” (DOCK2 (Homo sapiens, UniProt Q92608); cross-linking MS; added: DSSO).
For `SSSPQQRSGLRSQKLHLTYIEKNKRVRAMIPQ (lst-1 67-98 (Caenorhabditis elegans, UniProt P91820); sequence looked up)`, the Kd was 0.4 µM (fbf-1 162-614 (Caenorhabditis elegans, UniProt Q9N5M6); ITC; peptide; NaCl 150 mM).
`B11 (PXN 541-605)` has a Kd of 201 µM (FERMT2 1-105 (Homo sapiens, UniProt Q96AC1); NMR titration).

For quick reference, copied from above:
The Kd of `B4 (EFR3A 721-791)` is reported as 0.000298 µM (TTC7B/FAM126B FAM126B 1-308; BLI).
`colistin` gave an MIC of 1 µg/mL (Pseudomonas aeruginosa; broth microdilution; clinical isolate RKI-No_480/15).
`B7 (Flrt2 35-362)` has a Kd of 21 µM (UNC5B 27-375 (Homo sapiens, UniProt Q8IZJ1); SPR).
